Experimental data pooled from the literature.
“And” joins repeats or separate records; there may be more than shown. ± marks the error that the study gave.
USP16 ZnF-UBD domain: Ubiquitin carboxyl-terminal hydrolase 16, ZnF-UBD domain (USP16, Homo sapiens, UniProt Q9Y5T5)
Chain of UniProt Q9Y5T5 (whole entry, looked up): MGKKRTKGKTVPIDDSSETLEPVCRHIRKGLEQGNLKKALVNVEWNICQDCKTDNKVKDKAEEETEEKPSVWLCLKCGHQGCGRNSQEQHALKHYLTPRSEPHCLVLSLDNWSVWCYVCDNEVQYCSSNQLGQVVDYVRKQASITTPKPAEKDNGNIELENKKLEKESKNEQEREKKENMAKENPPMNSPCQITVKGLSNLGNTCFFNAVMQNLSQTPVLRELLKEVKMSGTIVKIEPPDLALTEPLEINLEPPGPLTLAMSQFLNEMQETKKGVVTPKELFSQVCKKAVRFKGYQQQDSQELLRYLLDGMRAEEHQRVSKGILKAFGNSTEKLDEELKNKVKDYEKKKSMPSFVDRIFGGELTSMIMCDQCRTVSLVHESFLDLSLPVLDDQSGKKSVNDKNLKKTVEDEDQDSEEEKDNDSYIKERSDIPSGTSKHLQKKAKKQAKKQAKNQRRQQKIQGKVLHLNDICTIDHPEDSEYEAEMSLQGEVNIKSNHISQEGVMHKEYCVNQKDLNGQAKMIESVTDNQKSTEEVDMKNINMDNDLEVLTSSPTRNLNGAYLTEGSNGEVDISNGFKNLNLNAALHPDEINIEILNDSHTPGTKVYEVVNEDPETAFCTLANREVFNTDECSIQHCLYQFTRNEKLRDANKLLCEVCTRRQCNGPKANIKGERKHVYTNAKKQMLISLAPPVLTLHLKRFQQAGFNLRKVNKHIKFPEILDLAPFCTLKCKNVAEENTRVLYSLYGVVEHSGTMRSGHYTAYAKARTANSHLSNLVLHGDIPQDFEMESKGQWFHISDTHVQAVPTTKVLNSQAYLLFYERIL

Nc1nc2c(ncn2[C@@H]2O[C@@H]3COP(=O)(O)O[C@H]3[C@H]2O)c(=O)[nH]1  log2 fold change (binding, MIDAS equilibrium dialysis LC-MS; A2AR-BRIL thermostabilized; concentration not given; reference: no-protein control): 0.173
CCCC(=O)OCSc1ccccc1C(=O)NCCn1ccc(=O)c2cc(Cl)ccc21  TC50 (CEM-SS; cell viability, XTT; RPMI with 10% FBS; 6 days): 24.6 ± 7.1 µM
COc1ccc(-c2nc(N3CCOCC3)c3sc(CN(C)c4ncc(C(=O)NO)cn4)cc3n2)cn1  CC50 (primary human keratinocytes uninfected; live/dead staining; 20 h): 1.97 µM
O=C(O)CCC(=O)Nc1cccc2ccccc12  Kd (USP16 ZnF-UBD domain): > 1000 µM
CC(=O)ON=C1C=CC(=C(C#N)c2ccccc2)C=C1  IC50 relative to MIC (HDF-1 human skin fibroblasts; MTT; 72 h, serum-free DMEM; reference: Candida albicans MIC): > 12 multiple of MIC
CC[C@H]1OC(=O)[C@H](C)[C@@H](O[C@H]2C[C@@](C)(OC)[C@@H](O)[C@H](C)O2)[C@H](C)[C@@H](O[C@@H]2O[C@H](C)C[C@H](N(C)C)[C@H]2O)[C@](C)(O)C[C@@H](C)/C(=N\OCOCCOC)[C@H](C)[C@@H](O)[C@]1(C)O  mRNA level (human hepatocytes; item: CYP3A4; concentration not given, 3 days; reference: negative control): < 4 fold
CCCC(CCC)NC(=O)c1ccc2c(c1)OCO2  relative mitotic index (CHO-WBL; 5.0 mg/mL, 3 h, with rat liver S9): 105%
CCCC(=O)OCSc1ccccc1C(=O)NCCn1cc(C(=O)NCc2ccccn2)c(=O)c2cc3c(cc21)OCO3  TC50 (CEM-SS; cell viability, XTT; RPMI with 10% FBS; 6 days): > 100 µM
N[C@@H]1c2cccnc2[C@H](OC(=O)N2CCC(n3c(=O)[nH]c4ncccc43)CC2)CC[C@H]1c1cccc(F)c1F  liver to blood partition coefficient (cryopreserved human hepatocytes): 6.1
CC[C@H](C)C(=O)N1CCC(NC(=O)Nc2ccc(OC(F)(F)F)c(F)c2)CC1  percent recovery (Caco-2; Caco-2 permeability; 10 µM, 60 min, pH 7.4 apical, 7.4 basolateral, replicate 2; apical to basolateral): 46%
Cn1cc(-c2ccc(-c3cncc(Cl)c3N3CCC4(CCNC4=O)CC3)cc2)cn1  log2 fold change (COLO 205; gene expression, microarray, item: POU2AF1 mRNA; concentration not given, 6 h; reference: untreated cells): -4.11
CN(C(=O)C(C)(C)c1cc(C(F)(F)F)cc(C(F)(F)F)c1)c1cnc(N2C[C@H]3COCCN3C[C@H]2CO)cc1-c1ccc(F)cc1[14CH3]  turnover (cryopreserved human hepatocytes; 5 µM, 0 h): < 1%
NCCCCN=C(N)N  log2 fold change (binding, MIDAS equilibrium dialysis LC-MS; A2AR-BRIL thermostabilized; concentration not given; reference: no-protein control): -0.00783
CCC[C@H](CC)Oc1ccc(C(C)(C)C)cc1NC(=O)c1nnn(-c2cc(C)c(OC)cc2OC)c1C  CC50 (SNU-C4 HiBiT-PXR knock-in; CellTiter-Glo; 72 h, 10% FBS): > 30 µM
O=C(Nc1c2c(cc3c1CCC3)CCC2)NS(=O)(=O)/C=C/c1nccs1  Papp A to B (Caco-2; 2 µM, 120 min, pH 7.4): 9.46 ± 0.361 ×10⁻⁶ cm/s
CC[C@H](C)CCCCC(=O)N[C@@H](CCN)C(=O)N[C@H](C(=O)N[C@@H](CCN)C(=O)N[C@H]1CCNC(=O)[C@H]([C@@H](C)O)NC(=O)[C@H](CCN)NC(=O)[C@H](CCN)NC(=O)[C@H](CC(C)C)NC(=O)[C@@H](CC(C)C)NC(=O)[C@H](CCN)NC1=O)[C@@H](C)O  hemolysis (sheep erythrocytes; 512 µg/mL, 37 °C; reference: Triton X-100): < 5%
C#Cc1c(F)ccc2cc(O)cc(-c3ncc4c(N5CC6CCC(C5)N6)nc(OC[C@@]56CCCN5C[C@H](F)C6)nc4c3F)c12  efflux ratio (Caco-2; no inhibitor, P-gp (verapamil) set): > 22.8
COc1cnc2cccc(N3CCc4c(cc(Cn5ccnc5C)cc4-c4cn(C)nc4C(F)(F)F)C3=O)c2c1  EC50 (GSU; cell growth; 120 h): 0.0429 µM
Cc1cccc(C)c1N(CC(=O)Nc1ccc(-c2ncon2)cc1)C(=O)C1CCS(=O)(=O)CC1  CC50 (primary human keratinocytes uninfected; live/dead staining; 20 h): > 60 µM
Cc1ccc(-c2nc(NS(=O)(=O)c3ccccc3)nc(N)c2-c2nc3ccccc3s2)cc1  maximum non-toxic concentration (Vero; cytotoxicity; 72 h): 90 µg/mL
CCCC(=O)OCSc1ccccc1C(=O)NCCOc1ccnc2ccc(OC(F)(F)F)cc12  TC50 (CEM-SS; cell viability, XTT; RPMI with 10% FBS; 6 days): 43.7 ± 12.7 µM
Cc1cc(C(=O)NC(C)(C)COc2cccc3c2C(N)=NS(=O)(=O)N3)cc(C)n1  cytotoxicity (human peripheral blood lymphocytes; CBPI, concurrent micronucleus test; 2000 µg/mL, 4 h, added: rat liver S9; reference: vehicle control): -4%
CNC(=O)c1cc(Oc2ccc(NC(=O)Nc3ccc(Cl)c(C(F)(F)F)c3)cc2)ccn1  CC50 (HeLa; MTT; 24 h): 9.52 µM
C=CC(=O)N(C)CCOc1c(N)ncnc1-c1cc(F)cc(NC(=O)c2ccc(C3CC3)cc2F)c1C  EC50 (human hepatocytes; mRNA induction, inducer, item: CYP1A2): 4.55 µM
O=C(O)Cc1nc2ccccc2o1  Kd (USP16 ZnF-UBD domain): > 1000 µM
C[C@H](O)c1cnc(NS(=O)(=O)c2ccc(Cl)c(Cl)c2)nc1  metabolism inhibited by ABT and TA (cryopreserved human hepatocytes; pan-CYP inhibition; 1 µM, added: 1 mM 1-aminobenzotriazole and 15 µM tienilic acid): 7%
COc1c(NC(=O)C(=O)c2ccc(OCCN3CCOCC3)c3ccccc23)cc(C(C)(C)C)cc1NS(C)(=O)=O  CC50 (ldlA[mSR-BI] CHO; 24 h): > 35 µM
COc1cc(/C=C/C=C2\SC(=S)NC2=O)cc(OC)c1O  viability (HeLa; CellTiter-Glo; 20 µM, 24 h, unit not given; reference: untreated): 0.911 and 0.845
CCCC(=O)OCSc1ccccc1C(=O)NCCn1cc(C(=O)NCc2cccc(C)n2)c(=O)c2cc3c(cc21)OC(F)(F)O3  TC50 (CEM-SS; cell viability, XTT; RPMI with 10% FBS; 6 days): > 100 µM
Cc1ccc(S(=O)(=O)Oc2ccc(NC(=O)c3cnccn3)cc2)cc1  viability (MCF7 non-transfected; MTT; 100 µM, 24 h; reference: untreated): 81.6 ± 0.83%
CSc1nc(NS(=O)(=O)c2ccccc2)nc(N)c1-c1nc2ccccc2s1  maximum non-toxic concentration (Vero; cytotoxicity; 72 h): 90 µg/mL
CC(C)n1ncc2c(C(=O)NCC3(C)CNC3)cc(C3CC3)nc21  viability (HeLa; neutral red uptake; 1 µM, 2% FBS; reference: positive control): 102%
COc1cc2ncnc(Nc3ccc(Oc4ccccc4)cc3C)c2cc1OC.O=C(O)C(F)(F)F  viability fraction (MeWo (NF1); resazurin; 0.3 µM, 72 h, added: trametinib 0 nM): 0.972
O=c1c(O[C@@H]2O[C@H](CO)[C@@H](O)[C@H](O)[C@H]2O)c(-c2ccc(O)cc2)oc2cc(O)cc(O)c12  IC50 (HaCaT; cytotoxicity, MTT; 48 h, 10% FBS): > 200 µM
CCCC(=O)OCSc1ccccc1C(=O)NCCOc1ccnc2ccc(C)cc12  TC50 (CEM-SS; cell viability, XTT; RPMI with 10% FBS; 6 days): 54.3 ± 2.5 µM
C1CCc2c(c(N3CCOCC3)nc3sc4c(N5CCNCC5)nnnc4c23)C1  percentage of drug-related material (cryopreserved rat hepatocytes; UHPLC-MS peak area; 1 µM, 20 min): 32%
CCCC(=O)OCSc1ccccc1C(=O)NCCC(=O)N1CCN(C(=O)Cn2ccc(=O)c3cc4c(cc32)OCO4)CC1  TC50 (CEM-SS; cell viability, XTT; RPMI with 10% FBS; 6 days): > 100 µM
C[C@@H](c1ccc2nccn2c1)n1nnc2ncc(-c3cnn(C)c3)nc21  F2 (human hepatocytes; item: CYP1A2 mRNA; human; 48 h): > 30 µM
Cc1cccc(CNC(=O)c2cn(CCNC(=O)c3ccccc3Sc3c([N+](=O)[O-])ncn3C)c3cc4c(cc3c2=O)OC(F)(F)O4)n1  TC50 (CEM-SS; cell viability, XTT; 6 days, RPMI with 10% FBS, added: no added glutathione): 17.6 µM
CC1(C)CC(=O)c2c(C(F)(F)F)nn(-c3ccc(C(N)=O)c(N[C@H]4CC[C@H](O)CC4)c3)c2C1  CC50 (primary human keratinocytes uninfected; live/dead staining; 20 h): 0.45 µM
CCCC(=O)OCSc1ccccc1C(=O)NCCn1cc(C(=O)NCc2ncccn2)c(=O)c2cc3c(cc21)OCO3  TC50 (CEM-SS; cell viability, XTT; RPMI with 10% FBS; 6 days): > 100 µM
CCCCC(CC)COC(=O)CC(C(=O)OCC(CC)CCCC)S(=O)(=O)O (stereo not drawn)  cytotoxicity (HCE; MTT; up to 50 µM): not toxic

A few entries again:
CNC(=O)c1cc(Oc2ccc(NC(=O)Nc3ccc(Cl)c(C(F)(F)F)c3)cc2)ccn1  CC50 (HeLa; MTT; 24 h): 9.52 µM
CCCC(=O)OCSc1ccccc1C(=O)NCCn1cc(C(=O)NCc2cccc(C)n2)c(=O)c2cc3c(cc21)OC(F)(F)O3  TC50 (CEM-SS; cell viability, XTT; RPMI with 10% FBS; 6 days): > 100 µM
CCCC(=O)OCSc1ccccc1C(=O)NCCC(=O)N1CCN(C(=O)Cn2ccc(=O)c3cc4c(cc32)OCO4)CC1  TC50 (CEM-SS; cell viability, XTT; RPMI with 10% FBS; 6 days): > 100 µM
